Measurements of several laboratories.
Numbered parts are unrelated; each lists some results of a single study.

Study 1 — method: protein binding microarray; form: double-stranded DNA, one strand shown; matrix: in vitro; concentration: not given; baseline: not given; reading: higher = stronger binding; quantity: E-score
Target: Histone acetyltransferase KAT6A, winged helix 2, GST fusion (KAT6A, Homo sapiens, UniProt Q92794, residues 85-181)
Setting: 8-mer, flanks averaged, mean of 2 arrays, mostly near background
Construct (chain): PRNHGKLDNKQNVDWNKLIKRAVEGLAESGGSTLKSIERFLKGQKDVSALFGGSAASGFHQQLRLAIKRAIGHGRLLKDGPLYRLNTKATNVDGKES
CAGAGGGA: 0.0302
GGGTTTAC: -0.0871
CAGCCAGC: -0.0947

Study 2 — method: protein-binding microarray; form: double-stranded DNA, one strand shown; matrix: in vitro; concentration: 2200 nM top; setting: 60-bp whole probe; together with: salmon DNA 0.4 mg/ml; baseline: random background probes; reading: higher = stronger binding; quantity: fitted relative affinity
Target: Interferon regulatory factor 7, full length, phosphomimetic (IRF7, Homo sapiens, UniProt Q92985, residues 1-503, S471D/S472D/S475D/S476D/S477D/S483D/S484D/S487D)
Construct (chain): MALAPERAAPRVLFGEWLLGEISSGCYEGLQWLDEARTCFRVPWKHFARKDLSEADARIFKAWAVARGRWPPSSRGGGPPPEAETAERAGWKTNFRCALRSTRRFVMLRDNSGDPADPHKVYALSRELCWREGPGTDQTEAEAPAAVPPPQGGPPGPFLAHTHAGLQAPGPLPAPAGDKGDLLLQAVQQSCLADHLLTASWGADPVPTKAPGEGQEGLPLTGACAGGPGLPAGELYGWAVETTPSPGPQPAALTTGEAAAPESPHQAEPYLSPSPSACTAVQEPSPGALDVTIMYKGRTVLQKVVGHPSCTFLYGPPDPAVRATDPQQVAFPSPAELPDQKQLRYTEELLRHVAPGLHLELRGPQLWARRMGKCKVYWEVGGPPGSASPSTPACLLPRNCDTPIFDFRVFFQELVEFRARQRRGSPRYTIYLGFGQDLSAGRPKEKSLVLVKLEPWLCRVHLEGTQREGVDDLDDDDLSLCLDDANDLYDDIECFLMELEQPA
GCCTAGCACAGTCGTGAGCCGCACAGTGGGTGCTAGGTCTTGATTCGCTTGACGCTGCTG: -0.965 z-score
GCCTAGCACGGCGATTTCAGTATCGAGACGTGCTAGGTCTTGATTCGCTTGACGCTGCTG: 0.594 z-score
GCCTAGCACGACGATATCGGGTTTCGAGCCGTGCTAGTCTTGATTCGCTTGACGCTGCTG: 1.06 z-score
GCCTAGCACTTAGATCTCGGGTATCGATTAGTGCTAGTCTTGATTCGCTTGACGCTGCTG: 0.415 z-score

Other studies, line by line
GGGAGUUCUACAGUCCGACGAUCCUGCACAUAAGUAAAUGUCUUCACGUCAGUGCGUCCGUGGAAAUUGUGAUCUGUUGUAAUAUCAGUUACAGUGGCAGUAUUGAGAAUAAGAAAUAGUUUAACAGGAAAAAUGGAAUUCUCGGGUGCCAA  RBNS enrichment (R) (RNA binding protein fox-1 homolog 2, RRM domain, GST-SBP tag (RBFOX2, Homo sapiens, UniProt O43251-10, residues 100-194); RNA Bind-n-Seq; RNA, in vitro; 365 nM, natural RNA segment, single round, ends assumed; baseline: no-protein control, higher = stronger binding): 0.306
PhoQ, residues 284 288 289 292 302 303 SLSVQF  fold induction (PhoP, residues 12 14 15 18 19 DLLYY (Escherichia coli, UniProt P23836); Sort-seq, refers to: YFP reporter; E. coli; PhoQ-PhoP variant library, together with: 10 µM Mg2+; baseline: high Mg2+ state, higher = stronger signaling): 0.409

Repeated from above (study 2):
GCCTAGCACAGTCGTGAGCCGCACAGTGGGTGCTAGGTCTTGATTCGCTTGACGCTGCTG: -0.965 z-score
GCCTAGCACGGCGATTTCAGTATCGAGACGTGCTAGGTCTTGATTCGCTTGACGCTGCTG: 0.594 z-score
